# Results from different studies.
# Amino acid sequences for entries named in this document (tags omitted). Residues count along the entry.
# UniProt Q07440, 1-152 P104K/C113S limits assumed: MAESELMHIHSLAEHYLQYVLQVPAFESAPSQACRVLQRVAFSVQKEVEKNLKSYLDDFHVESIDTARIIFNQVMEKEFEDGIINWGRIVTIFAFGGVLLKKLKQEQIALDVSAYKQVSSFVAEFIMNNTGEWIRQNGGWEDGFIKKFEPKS
# UniProt Q07440, whole entry P104K/C113S, looked up: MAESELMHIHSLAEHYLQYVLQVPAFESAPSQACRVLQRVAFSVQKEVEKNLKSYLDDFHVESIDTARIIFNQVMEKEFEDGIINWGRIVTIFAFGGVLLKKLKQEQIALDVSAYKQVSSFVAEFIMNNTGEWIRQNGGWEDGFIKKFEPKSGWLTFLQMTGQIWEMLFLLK
# UniProt Q2TR58, 19-280 limits assumed: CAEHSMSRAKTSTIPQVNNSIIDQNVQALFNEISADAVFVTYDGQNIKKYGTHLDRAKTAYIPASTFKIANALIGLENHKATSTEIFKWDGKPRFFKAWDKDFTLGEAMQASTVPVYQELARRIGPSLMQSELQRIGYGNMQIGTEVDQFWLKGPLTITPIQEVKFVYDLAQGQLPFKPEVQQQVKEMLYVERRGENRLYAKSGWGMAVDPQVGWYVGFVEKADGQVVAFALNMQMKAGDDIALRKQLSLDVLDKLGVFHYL
# UniProt P06802, 92-905 isoform 2 limits assumed: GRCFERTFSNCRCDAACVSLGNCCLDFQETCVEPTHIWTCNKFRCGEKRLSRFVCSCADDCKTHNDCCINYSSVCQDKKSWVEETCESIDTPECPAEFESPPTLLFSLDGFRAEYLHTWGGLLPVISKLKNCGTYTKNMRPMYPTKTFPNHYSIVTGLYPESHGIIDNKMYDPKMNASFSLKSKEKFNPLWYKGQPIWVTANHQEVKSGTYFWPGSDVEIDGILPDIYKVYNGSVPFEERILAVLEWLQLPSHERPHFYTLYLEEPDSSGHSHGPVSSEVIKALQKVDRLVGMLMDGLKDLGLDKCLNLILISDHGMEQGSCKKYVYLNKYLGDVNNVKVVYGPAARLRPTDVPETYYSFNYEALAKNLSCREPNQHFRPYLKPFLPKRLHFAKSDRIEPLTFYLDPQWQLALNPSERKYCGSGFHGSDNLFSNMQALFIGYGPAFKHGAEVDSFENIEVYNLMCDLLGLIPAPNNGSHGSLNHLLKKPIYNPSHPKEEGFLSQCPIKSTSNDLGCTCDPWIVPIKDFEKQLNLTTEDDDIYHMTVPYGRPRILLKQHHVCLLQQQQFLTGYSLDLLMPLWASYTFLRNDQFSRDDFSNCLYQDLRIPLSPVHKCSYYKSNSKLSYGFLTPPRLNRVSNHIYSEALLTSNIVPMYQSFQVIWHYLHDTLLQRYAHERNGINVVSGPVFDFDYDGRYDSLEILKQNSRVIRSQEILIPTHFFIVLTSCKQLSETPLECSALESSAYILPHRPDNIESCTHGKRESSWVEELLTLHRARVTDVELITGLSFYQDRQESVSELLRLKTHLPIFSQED
# UniProt P9WPP7, whole entry: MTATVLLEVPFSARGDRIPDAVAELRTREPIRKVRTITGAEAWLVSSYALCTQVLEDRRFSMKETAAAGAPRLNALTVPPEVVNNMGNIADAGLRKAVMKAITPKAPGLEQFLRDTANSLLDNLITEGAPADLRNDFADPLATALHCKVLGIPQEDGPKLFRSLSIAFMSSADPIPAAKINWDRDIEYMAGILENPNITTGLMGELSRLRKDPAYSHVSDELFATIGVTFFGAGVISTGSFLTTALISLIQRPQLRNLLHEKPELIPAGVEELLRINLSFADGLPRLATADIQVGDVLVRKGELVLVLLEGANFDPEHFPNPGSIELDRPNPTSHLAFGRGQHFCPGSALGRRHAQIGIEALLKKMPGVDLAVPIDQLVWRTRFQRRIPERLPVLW
# UniProt P34972, whole entry: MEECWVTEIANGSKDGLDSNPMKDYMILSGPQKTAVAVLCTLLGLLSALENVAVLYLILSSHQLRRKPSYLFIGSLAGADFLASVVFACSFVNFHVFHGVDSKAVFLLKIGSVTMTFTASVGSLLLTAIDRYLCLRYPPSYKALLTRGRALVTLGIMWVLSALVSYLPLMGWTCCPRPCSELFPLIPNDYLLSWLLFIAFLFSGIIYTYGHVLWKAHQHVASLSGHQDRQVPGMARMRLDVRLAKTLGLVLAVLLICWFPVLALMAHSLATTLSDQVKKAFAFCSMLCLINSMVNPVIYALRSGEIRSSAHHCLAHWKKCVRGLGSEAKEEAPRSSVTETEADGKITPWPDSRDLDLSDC
# UniProt Q48485, 24-384 limits assumed: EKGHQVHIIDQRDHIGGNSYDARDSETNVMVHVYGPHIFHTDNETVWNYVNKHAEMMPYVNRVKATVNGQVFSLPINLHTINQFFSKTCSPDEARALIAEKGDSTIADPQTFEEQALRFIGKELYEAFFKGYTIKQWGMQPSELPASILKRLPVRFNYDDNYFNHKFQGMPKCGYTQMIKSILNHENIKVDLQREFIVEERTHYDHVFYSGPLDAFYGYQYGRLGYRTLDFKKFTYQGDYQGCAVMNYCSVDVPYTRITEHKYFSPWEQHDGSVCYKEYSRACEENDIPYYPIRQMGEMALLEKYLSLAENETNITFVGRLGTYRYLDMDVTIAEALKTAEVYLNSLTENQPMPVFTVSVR
# UniProt P49789, whole entry: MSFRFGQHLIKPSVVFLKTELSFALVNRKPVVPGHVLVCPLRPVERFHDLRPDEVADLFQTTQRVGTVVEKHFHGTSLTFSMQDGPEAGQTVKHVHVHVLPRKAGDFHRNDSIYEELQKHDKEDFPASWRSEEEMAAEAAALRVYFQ
# UniProt P31652, whole entry: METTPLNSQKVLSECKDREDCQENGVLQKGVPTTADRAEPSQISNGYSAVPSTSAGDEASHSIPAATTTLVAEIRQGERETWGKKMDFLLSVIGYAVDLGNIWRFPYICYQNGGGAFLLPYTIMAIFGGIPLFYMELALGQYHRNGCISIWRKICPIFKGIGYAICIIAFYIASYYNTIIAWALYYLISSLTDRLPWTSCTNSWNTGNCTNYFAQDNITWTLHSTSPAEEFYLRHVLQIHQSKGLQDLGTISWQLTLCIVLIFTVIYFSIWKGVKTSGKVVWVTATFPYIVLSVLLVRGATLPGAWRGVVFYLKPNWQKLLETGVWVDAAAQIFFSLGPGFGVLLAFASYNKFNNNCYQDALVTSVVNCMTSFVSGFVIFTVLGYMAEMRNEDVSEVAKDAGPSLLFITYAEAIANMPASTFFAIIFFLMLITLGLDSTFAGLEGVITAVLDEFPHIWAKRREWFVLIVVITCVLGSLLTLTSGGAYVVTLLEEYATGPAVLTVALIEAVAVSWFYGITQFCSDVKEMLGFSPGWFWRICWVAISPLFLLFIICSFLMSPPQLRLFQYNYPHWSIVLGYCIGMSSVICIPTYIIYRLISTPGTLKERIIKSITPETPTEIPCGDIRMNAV
# UniProt Q8RLA6, 21-275 limits assumed: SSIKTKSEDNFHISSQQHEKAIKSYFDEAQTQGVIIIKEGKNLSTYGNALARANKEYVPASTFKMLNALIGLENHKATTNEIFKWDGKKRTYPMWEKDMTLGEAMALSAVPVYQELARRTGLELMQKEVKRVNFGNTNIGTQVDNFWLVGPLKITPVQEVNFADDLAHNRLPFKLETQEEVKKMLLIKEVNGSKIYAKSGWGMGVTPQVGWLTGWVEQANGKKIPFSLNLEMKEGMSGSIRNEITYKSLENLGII
# UniProt P42866, whole entry: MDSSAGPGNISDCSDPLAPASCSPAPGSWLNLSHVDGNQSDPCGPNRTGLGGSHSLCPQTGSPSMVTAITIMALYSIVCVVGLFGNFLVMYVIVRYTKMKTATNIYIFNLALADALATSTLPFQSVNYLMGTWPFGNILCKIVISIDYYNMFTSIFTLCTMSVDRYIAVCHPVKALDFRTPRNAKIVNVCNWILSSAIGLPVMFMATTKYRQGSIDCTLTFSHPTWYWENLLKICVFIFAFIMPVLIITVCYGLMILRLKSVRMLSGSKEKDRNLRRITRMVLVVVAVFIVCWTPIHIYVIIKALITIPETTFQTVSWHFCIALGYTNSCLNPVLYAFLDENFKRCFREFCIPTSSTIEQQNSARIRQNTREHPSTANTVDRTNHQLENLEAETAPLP
# UniProt P28566, whole entry: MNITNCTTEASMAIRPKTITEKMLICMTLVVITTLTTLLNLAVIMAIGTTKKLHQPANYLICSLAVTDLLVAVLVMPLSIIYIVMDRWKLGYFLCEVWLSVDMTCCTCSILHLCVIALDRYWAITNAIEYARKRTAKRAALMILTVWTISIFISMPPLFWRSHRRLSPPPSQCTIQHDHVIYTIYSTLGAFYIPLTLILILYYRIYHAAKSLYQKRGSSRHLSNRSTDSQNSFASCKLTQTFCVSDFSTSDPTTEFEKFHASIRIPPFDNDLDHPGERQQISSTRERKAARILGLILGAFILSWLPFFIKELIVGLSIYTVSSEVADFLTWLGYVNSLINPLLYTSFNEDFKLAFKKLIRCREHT
# UniProt C7C2U7, 1-163: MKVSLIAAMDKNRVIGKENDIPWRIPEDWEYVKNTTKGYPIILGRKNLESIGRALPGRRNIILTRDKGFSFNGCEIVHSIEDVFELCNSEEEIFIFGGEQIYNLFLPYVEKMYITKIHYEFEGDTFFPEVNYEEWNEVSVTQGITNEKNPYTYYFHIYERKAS
# UniProt Q04430, whole entry: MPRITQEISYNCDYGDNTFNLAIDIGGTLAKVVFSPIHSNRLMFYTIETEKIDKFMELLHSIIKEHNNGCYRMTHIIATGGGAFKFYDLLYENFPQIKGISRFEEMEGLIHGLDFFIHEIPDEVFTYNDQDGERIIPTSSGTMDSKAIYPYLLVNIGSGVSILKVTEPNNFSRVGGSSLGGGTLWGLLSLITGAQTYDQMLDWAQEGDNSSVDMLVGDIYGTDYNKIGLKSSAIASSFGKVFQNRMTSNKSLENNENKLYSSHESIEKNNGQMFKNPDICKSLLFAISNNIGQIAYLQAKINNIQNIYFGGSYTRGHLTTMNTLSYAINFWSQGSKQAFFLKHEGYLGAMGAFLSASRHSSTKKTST
# UniProt Q2YVL6, whole entry: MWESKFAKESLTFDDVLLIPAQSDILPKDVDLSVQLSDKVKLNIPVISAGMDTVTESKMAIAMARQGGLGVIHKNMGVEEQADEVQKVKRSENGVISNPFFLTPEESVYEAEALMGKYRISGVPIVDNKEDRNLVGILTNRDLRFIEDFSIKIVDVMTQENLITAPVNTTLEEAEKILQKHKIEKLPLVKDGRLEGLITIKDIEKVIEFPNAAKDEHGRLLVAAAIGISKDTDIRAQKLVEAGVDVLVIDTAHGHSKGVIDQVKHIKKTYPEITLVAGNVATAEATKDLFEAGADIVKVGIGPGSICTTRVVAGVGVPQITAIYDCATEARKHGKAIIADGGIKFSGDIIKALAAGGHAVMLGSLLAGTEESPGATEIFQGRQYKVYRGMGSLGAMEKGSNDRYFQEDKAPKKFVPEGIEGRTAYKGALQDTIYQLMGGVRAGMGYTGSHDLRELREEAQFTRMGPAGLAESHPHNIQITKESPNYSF
# UniProt P19491, 22-883 limits assumed: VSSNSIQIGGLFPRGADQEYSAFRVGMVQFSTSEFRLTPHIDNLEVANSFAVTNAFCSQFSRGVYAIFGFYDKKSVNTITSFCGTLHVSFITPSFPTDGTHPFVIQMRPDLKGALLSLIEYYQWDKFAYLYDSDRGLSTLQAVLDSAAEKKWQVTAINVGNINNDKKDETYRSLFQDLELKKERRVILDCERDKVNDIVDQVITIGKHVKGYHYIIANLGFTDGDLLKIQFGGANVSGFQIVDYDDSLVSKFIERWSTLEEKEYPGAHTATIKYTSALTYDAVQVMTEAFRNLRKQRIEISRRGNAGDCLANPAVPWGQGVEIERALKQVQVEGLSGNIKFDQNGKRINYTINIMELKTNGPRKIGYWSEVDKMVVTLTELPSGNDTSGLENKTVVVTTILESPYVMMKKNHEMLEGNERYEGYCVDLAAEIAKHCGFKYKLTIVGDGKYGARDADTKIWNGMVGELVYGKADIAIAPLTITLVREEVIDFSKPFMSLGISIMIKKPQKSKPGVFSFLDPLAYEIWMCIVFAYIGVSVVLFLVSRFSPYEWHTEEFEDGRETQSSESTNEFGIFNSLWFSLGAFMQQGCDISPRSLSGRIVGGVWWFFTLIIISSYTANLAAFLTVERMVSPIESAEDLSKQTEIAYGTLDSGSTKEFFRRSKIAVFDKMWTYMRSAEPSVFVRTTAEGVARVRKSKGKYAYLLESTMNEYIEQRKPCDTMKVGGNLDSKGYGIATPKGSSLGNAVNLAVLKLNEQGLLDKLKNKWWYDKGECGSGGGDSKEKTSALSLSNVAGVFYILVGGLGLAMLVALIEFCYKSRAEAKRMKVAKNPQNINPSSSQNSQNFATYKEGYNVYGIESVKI
# UniProt P00811, whole entry, looked up: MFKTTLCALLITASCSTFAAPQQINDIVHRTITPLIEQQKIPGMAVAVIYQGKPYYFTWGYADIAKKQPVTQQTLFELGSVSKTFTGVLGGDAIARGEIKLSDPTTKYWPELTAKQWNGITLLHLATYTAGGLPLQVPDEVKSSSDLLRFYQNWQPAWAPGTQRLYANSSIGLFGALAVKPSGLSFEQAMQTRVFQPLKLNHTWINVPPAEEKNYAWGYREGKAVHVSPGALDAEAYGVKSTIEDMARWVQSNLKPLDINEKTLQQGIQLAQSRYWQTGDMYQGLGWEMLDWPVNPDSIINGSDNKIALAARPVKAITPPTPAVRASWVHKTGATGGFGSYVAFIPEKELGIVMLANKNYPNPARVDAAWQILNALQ
# Protocols differ between the studies behind these lines. ± gives the spread as reported.
# Bcl-2-related protein A1 C113S/P104K: Bcl-2-related protein A1 (Mus musculus, UniProt Q07440, C113S/P104K)
# OXA-58: Beta-lactamase OXA-58 (OXA-58, Acinetobacter baumannii, UniProt Q2TR58)
# CNR1: Cannabinoid receptor 1 (CNR1, Homo sapiens, UniProt P21554)
# OXA-48: Beta-lactamase OXA-48 (OXA-48, Klebsiella pneumoniae, UniProt Q6XEC0)
# Enpp1: Ectonucleotide pyrophosphatase/phosphodiesterase family member 1 (Enpp1, Mus musculus, UniProt P06802)
SMILES,target or system,test,system,setting,endpoint,result
O=C(Cc1cccs1)NCB(O)O,"bla (Klebsiella pneumoniae, UniProt P0AD64, N270D)","enzyme activity, inhibitor",,with: nitrocefin competitor,Ki,36 ± 4 µM
CCCCCCCCCCCCNC(=O)N[C@H](C(=O)N[C@H]1/C=C/CCNC(=O)/C=C/[C@H](C)NC1=O)C(C)C,"PSMB7 (Homo sapiens, UniProt Q99436)","trypsin-like activity, inhibitor, Proteasome-Glo",MM.1R,24 h,Ki,0.0537 ± 0.0159 µM
"C=CC(c1ccc(-c2ccc3c(c2)OCO3)cc1)n1ccnc1 (single isomer, unassigned)","cyp121 (Mycobacterium tuberculosis, UniProt P9WPP7)",,,enantiomer E2,Kd,4.6 µM
O=C(NC1CCN(c2ncnc3c2nc(-c2ccccc2Cl)n3-c2ccc(Cl)cc2)CC1)C1CCCC1,"CNR2 (Homo sapiens, UniProt P34972)","binding, radioligand displacement",CHO cell membranes,with: [3H]CP55940,Ki,0.06 µM
NC[C@@H](NC[C@@H]1CCCN1C[C@@H](CO)NC[C@@H](NCCC1CC2CCC1C2)c1ccccc1)c1ccccc1 (stereo partly drawn),Acinetobacter baumannii,bacterial growth,,"8 µM, fold shift of IC50, with: amikacin",potentiation of amikacin,2.4 fold
Nc1nc2[nH]cc(Cc3ccc(C(=O)Nc4ccccc4C(=O)O)cc3)c2c(=O)[nH]1,"Dihydrofolate reductase (Wuchereria bancrofti, UniProt J9F199)","inhibitor, Cheng-Prusoff from IC50",,,Ki,1 µM
CS(=O)(=O)Cc1onc(-c2cccc(Cl)c2)c1-c1ccnc(N[C@@H]2CCN(Cc3nccs3)C2)n1,"cGMP-dependent protein kinase (PKG, Plasmodium falciparum, UniProt Q8I719)","kinase activity, ATP-competitive inhibitor, IMAP kinetics",,,Ki,0.068 ± 0.02 µM
CCN(CCNc1ccc(C)c2sc3ccccc3c(=O)c12)CC(C)(C)O,Bcl-2-related protein A1 C113S/P104K,"binding, inhibitor, fluorescence polarization",,with: FITC-labelled Noxa peptide,Ki,16.9 µM
O=C(O)c1ccc(-c2cccc(C(=O)O)c2)cc1,OXA-58,"enzyme activity, inhibitor",,"enzyme 0.1 nM, with: nitrocefin 30 µM",Ki,45.8 ± 0.6 µM
O=C(O)CC1Sc2nnc(-c3cccs3)n2N=C1c1ccc(Cl)cc1 (stereo not drawn),"UDP-galactopyranose mutase (Klebsiella pneumoniae, UniProt Q48485)","enzyme activity, inhibitor, HPLC",,,Ki,8 ± 3 µM
COc1ccc(S(=O)(=O)Nc2cccc(C(=O)NC3CCN(c4ncnc5[nH]cnc45)CC3)c2)cc1,A549-ACE2,,,0.01016 µM,viability,100%
C=CC(=O)Nc1cc(-n2c(=O)ccc3cnc4ccc(-c5cn[nH]c5)cc4c32)ccc1C,Hs 505.T,cell growth,,72 h,GI50,1 µM
CC(C)(NC(=O)Nc1ccc(Cl)cc1)c1cccc(C(=N)NO)c1,"IMPDH 2, Staphylococcus aureus, G445S",inhibitor,,"with: 500 µM NAD+, 1.0 mM IMP",Ki,4.2 ± 0.1 µM
C[C@H](CS)C(=O)N[C@H](Cc1c[nH]c2ccccc12)C(=O)O,Enterobacter aerogenes,,VIM-1 producing,"25 µM, with: meropenem",MIC of meropenem,8 µg/mL
Nc1cc(S(=O)(=O)O)cc2cc(S(=O)(=O)O)cc(O)c12,OXA-58,"enzyme activity, inhibitor",,"enzyme 0.1 nM, with: nitrocefin 30 µM",Ki,30 ± 2 µM
O[C@H](c1ccc(F)cc1)C(F)(F)CCN1CCC(O)(c2ccc(Cl)cc2)CC1 (racemic),"DRD3 (Homo sapiens, UniProt P35462)",,,,Ki,5.26 ± 0.837 µM
O=C(CC1CCCC1)NC1CCN(c2ncnc3c2nc(-c2ccccc2Cl)n3-c2ccc(Cl)cc2)CC1,CNR1,"binding, radioligand displacement",CHO cell membranes,with: [3H]CP55940,Ki,0.002 µM
CC(CCN[C@H](CN[C@H](CO)CN1CCC[C@H]1CN[C@H](CN)c1ccccc1)c1ccccc1)c1ccccc1 (stereo partly drawn),Acinetobacter baumannii,bacterial growth,,compound alone,IC90,> 24 µM
Nc1nc2c(ncn2[C@@H]2CC[C@H](OC(C(=O)O)P(=O)(O)O)C2)c(=O)[nH]1 (relative stereo),"Gag-Pol polyprotein, reverse transcriptase (gag-pol, Human immunodeficiency virus type 1 group M subtype B, UniProt P04585)",mixed inhibitor,,"with: varying dGTP, poly rC.dG",Ki,0.506 µM
Nc1ncnc2c1ncn2[C@@H]1O[C@H](COP(=S)(S)OCC(O)COP(=S)(S)OC[C@H]2O[C@@H](n3cnc4c(N)ncnc43)[C@H](O)[C@@H]2O)[C@@H](O)[C@H]1O (stereo partly drawn),"FHIT (Homo sapiens, UniProt P49789)","competitive inhibitor, fluorescent substrate hydrolysis",,with: Appp-BODIPY substrate,Ki,8.6 µM
O=C(Cc1cccs1)NC(B(O)O)c1cccc(C(=O)O)c1 (stereo not drawn),"ADC-7 beta-lactamase (Acinetobacter baumannii, UniProt Q6DRA1)",inhibitor,,,Ki,0.011 ± 0.001 µM
C[C@@H]1CN(C)CCN1c1nc(-c2ccc(F)cc2)cs1,"Slc6a4 (Rattus norvegicus, UniProt P31652)","[3H]5-HT uptake, inhibitor",,30 min preincubation,Ki,0.17 ± 0.09 µM
O=S(=O)(O)c1ccc2c(c1)Cc1cc(S(=O)(=O)O)ccc1-2,"Beta-lactamase (blaOXA-33, Acinetobacter baumannii, UniProt Q8RLA6)","enzyme activity, inhibitor",,"enzyme 0.2 nM, with: nitrocefin 30 µM",Ki,34 ± 1 µM
CNC(=O)COCC(=O)NCCCCCCCNC(=O)COCC(=O)N[C@@H]1CC[C@@]2(O)[C@H]3Cc4ccc(O)c5c4[C@@]2(CCN3CC2CC2)[C@H]1O5,"Oprm1 (Mus musculus, UniProt P42866)","binding, radioligand competition",MOR-CHO cell membranes,with: [3H]naloxone 2 nM,Ki,0.00918 ± 0.00344 µM
NCCNCCSc1ccccc1,,,"Swiss Albino mouse, female","oral, 600 mg/kg, single dose, non-compartmental",mean residence time (MRT0-inf),8.99 h
O=S(=O)(O)c1ccc(-c2ccc(S(=O)(=O)O)cc2)cc1,OXA-48,"enzyme activity, inhibitor",,,Ki,1.4 µg/mL
CC(=NO)c1cccc(C(C)(C)NC(=O)Nc2ccc(Cl)c(-c3nc(C(F)(F)F)cs3)c2)c1,"IMPDH 2, Staphylococcus aureus, Y446C",inhibitor,,"with: 8 mM NAD+, 1.0 mM IMP",Ki,0.92 ± 0.03 µM
COC(=O)[C@@H](CS)N1C(=O)c2ccc(N(C)C)cc2C1=O,"blaNDM-1 (Klebsiella pneumoniae, UniProt C7C422)","binding, inhibitor",,,Ki,0.2 ± 0.03 µM
Cc1ccc(N=Nc2c(O)c(C(=O)O)cc3ccccc23)c(S(=O)(=O)O)c1,Bcl-2-related protein A1 C113S/P104K,"binding, inhibitor, fluorescence polarization competition",,"with: FITC-Noxa peptide, Kd 20 nM",Ki,19.6 µM
COCCCNc1cc(C(=O)NC2CC3CCC(C2)N3c2ccc(C(=O)NCc3ccccc3)cn2)ccc1C(N)=O (stereo not drawn),"HSP90AA1 (Homo sapiens, UniProt P07900)",fluorescence polarization,,"full-length protein, with: FITC-geldanamycin tracer",Ki,0.44 ± 0.13 µM
COc1ccc(CN[C@@H]2CO[C@H](C(c3ccccc3)c3ccccc3)C[C@H]2O)cc1,"HTR1E (Homo sapiens, UniProt P28566)",radioligand binding,,"10 µM, with: [3H]5-HT",inhibition,3.4%
CCc1nc(N)nc(N)c1C#CC(C)c1cc2c(c(-c3ccc(C(=O)O)cc3)c1)OCO2 (stereo not drawn),"Dihydrofolate reductase (Staphylococcus aureus, UniProt C7C2U7)",inhibitor,,,Ki,0.004 ± 0.0006 µM
Cc1c(C(=O)NN2CCCCC2)nn(-c2ccc(Cl)cc2Cl)c1-c1ccc(CCCCCBr)cc1,CNR1,radioligand displacement,,"with: [3H]CP55,940",Ki,0.0015 µM
CCc1nc(N)nc(N)c1C#CC(C)c1cc2c(c(-c3ccc(CC(=O)O)cc3)c1)OCO2 (stereo not drawn),"folA (Staphylococcus aureus, UniProt P0A017)",inhibitor,,,Ki,0.002 ± 7e-05 µM
COc1cc2ncnc(NCc3ccc(P(=O)(O)O)cc3)c2cc1OC,Enpp1,"enzyme activity, inhibitor, coupled luciferase AMP detection",,"pH 7.4, with: cGAMP 5 µM",Ki,0.012 µM
O=C(NO)c1cc(F)cc(F)c1,"hdac6 (Danio rerio, UniProt F8W4B7)","enzyme activity, inhibitor, steady-state kinetics",,,Ki,1.7 ± 0.2 µM
O=c1c2ccc(Oc3ccc(OC(F)(F)F)cc3)cc2[nH]c2cc(F)cc(F)c12,"Dihydroorotate dehydrogenase (Toxoplasma gondii, UniProt Q8MXD1)","enzyme activity, competitive inhibitor, DCIP reduction",,,Ki,2.03 µM
CN(C)c1cc(CN2CCOCC2)nc2nc(NCc3ccc(C(C)(C)C)cc3)nn12,"CAB1 (Saccharomyces cerevisiae, UniProt Q04430)","enzyme activity, inhibitor, ADP-Glo, Lineweaver-Burk",,with: ATP 1000 µM,Ki,0.012 µM
C=C(C)c1cccc(C(C)(C)NC(=O)Nc2ccc(Cl)cc2)c1,"Inosine-5'-monophosphate dehydrogenase (guaB, Staphylococcus aureus, UniProt Q2YVL6)",inhibitor,,with: 1000 µM IMP and 1000 µM NAD+,Ki,0.0095 ± 0.001 µM
O=C(O)C(Cc1nn[nH]n1)[C@@H]1CCN[C@H]1C(=O)O (relative stereo),"Gria2 (Rattus norvegicus, UniProt P19491)",binding,,,Ki,> 1000 µM
O=S(=O)(O)c1ccc2cc(S(=O)(=O)O)ccc2c1,OXA-48,"enzyme activity, inhibitor",,,Ki,1.7 µg/mL
COc1cccc2c(NCc3ccc(P(=O)(O)O)cc3)c(C#N)cnc12,Enpp1,"enzyme activity, inhibitor, coupled luciferase AMP detection",,"pH 7.4, with: cGAMP 5 µM",Ki,< 0.002 µM
Cc1ccc(S(=O)(=O)Nc2cccc(C(=O)NC3CCN(c4ncnc5[nH]cnc45)CC3)c2)cc1Cl,A549-ACE2,,,0.01016 µM,viability,100%
CC(C)(NC(=O)Nc1ccc(Cl)c(-c2nc(C(F)(F)F)cs2)c1)c1cccc(C(N)=NO)c1,"IMPDH 2, Staphylococcus aureus, Y446C",inhibitor,,"with: 8 mM NAD+, 1.0 mM IMP",Ki,1.17 ± 0.005 µM
Cc1cc(O)nc2ccc(NS(=O)(=O)c3cc(Cl)cc(Cl)c3O)cc12,"Beta-lactamase (ampC, Escherichia coli K-12, UniProt P00811)","inhibitor, concentration-response curves",,with: nitrocefin 50 µM,Ki,3.64 µM

# For quick reference, copied from above:
SMILES,target or system,test,system,setting,endpoint,result
O=S(=O)(O)c1ccc(-c2ccc(S(=O)(=O)O)cc2)cc1,OXA-48,"enzyme activity, inhibitor",,,Ki,1.4 µg/mL
CC(=NO)c1cccc(C(C)(C)NC(=O)Nc2ccc(Cl)c(-c3nc(C(F)(F)F)cs3)c2)c1,"IMPDH 2, Staphylococcus aureus, Y446C",inhibitor,,"with: 8 mM NAD+, 1.0 mM IMP",Ki,0.92 ± 0.03 µM
COC(=O)[C@@H](CS)N1C(=O)c2ccc(N(C)C)cc2C1=O,"blaNDM-1 (Klebsiella pneumoniae, UniProt C7C422)","binding, inhibitor",,,Ki,0.2 ± 0.03 µM
Cc1ccc(N=Nc2c(O)c(C(=O)O)cc3ccccc23)c(S(=O)(=O)O)c1,Bcl-2-related protein A1 C113S/P104K,"binding, inhibitor, fluorescence polarization competition",,"with: FITC-Noxa peptide, Kd 20 nM",Ki,19.6 µM
